Measurements collected from several papers.
Each numbered part is a random draw from the data of one study; scales do not carry over between parts. Several values in a cell are separate wells, animals, samples, runs or records.
UniProt Q16566, sequence (whole entry, looked up): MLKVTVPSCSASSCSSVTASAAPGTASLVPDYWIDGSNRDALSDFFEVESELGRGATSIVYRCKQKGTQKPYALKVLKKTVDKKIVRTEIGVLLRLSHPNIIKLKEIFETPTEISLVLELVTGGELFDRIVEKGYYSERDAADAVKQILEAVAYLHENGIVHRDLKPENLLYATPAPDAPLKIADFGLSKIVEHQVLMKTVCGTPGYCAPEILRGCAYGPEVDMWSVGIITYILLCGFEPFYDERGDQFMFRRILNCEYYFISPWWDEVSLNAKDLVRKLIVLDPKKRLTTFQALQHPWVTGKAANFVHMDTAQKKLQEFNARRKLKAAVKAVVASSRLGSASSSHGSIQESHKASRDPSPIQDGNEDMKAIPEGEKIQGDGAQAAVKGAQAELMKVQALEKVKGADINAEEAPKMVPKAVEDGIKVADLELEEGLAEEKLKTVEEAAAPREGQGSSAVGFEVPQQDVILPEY
UniProt O15075, sequence (whole entry, looked up): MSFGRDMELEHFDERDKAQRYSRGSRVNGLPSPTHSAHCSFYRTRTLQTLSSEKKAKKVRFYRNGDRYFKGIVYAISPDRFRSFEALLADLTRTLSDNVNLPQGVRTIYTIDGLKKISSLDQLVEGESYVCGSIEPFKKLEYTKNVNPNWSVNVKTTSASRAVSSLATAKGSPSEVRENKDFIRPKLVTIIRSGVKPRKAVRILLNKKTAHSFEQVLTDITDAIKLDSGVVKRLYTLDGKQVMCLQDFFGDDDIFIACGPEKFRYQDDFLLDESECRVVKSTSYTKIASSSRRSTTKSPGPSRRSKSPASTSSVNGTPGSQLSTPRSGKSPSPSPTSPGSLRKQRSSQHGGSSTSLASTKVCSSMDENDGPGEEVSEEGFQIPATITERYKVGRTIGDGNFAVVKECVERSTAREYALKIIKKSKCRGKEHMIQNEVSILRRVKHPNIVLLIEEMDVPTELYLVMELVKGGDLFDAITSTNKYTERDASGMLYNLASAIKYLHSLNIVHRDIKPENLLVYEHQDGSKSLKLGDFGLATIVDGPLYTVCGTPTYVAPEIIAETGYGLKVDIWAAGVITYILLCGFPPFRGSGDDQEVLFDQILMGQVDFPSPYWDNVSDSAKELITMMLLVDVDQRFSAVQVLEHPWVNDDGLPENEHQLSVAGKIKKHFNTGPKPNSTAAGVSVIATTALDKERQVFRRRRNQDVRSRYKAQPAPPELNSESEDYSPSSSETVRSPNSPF

Study 1 — cell line: L444P/L444P Gaucher fibroblasts; method: 4-MUG hydrolysis in lysate; tested at: 0.1 µM; time: 72 h; relative to: vehicle; quantity: enzyme activity
COc1ccc(Nc2nc(NCCN3CCOCC3)nc(N3CCOCC3)n2)cc1: 101%
Ic1ccc(Nc2nc(NCCCN3CCOCC3)nc(N3CCOCC3)n2)cc1: 109%
CCOc1ccc2nc(Sc3nc(N4CCOCC4)nc(N4CCOCC4)n3)sc2c1: 102%
Ic1ccc(Nc2nc(NCCN3CCOCC3)nc(N3CCCC3)n2)cc1: 99%
CCOc1ccc2nc(Sc3nc(Nc4ccc(OC)cc4)nc(N4CCOCC4)n3)sc2c1: 103%
Ic1ccc(Nc2nc(NCCc3c[nH]c4ccccc34)nc(NCCN3CCOCC3)n2)cc1: 99%
Ic1ccc(Nc2nc(NCCN3CCCCC3)nc(N3CCOCC3)n2)cc1: 101%
CCN(CC)c1nc(NCCN2CCOCC2)nc(Nc2ccc(I)cc2)n1: 95%
Ic1ccc(Nc2nc(NCCc3c[nH]c4ccccc34)nc(N3CCOCC3)n2)cc1: 217% and 193% and 214% and 162% and 207% and 191% and 172% and 215%
c1ccc(Nc2nc(NCCN3CCOCC3)nc(N3CCOCC3)n2)cc1: 97%
Ic1ccc(Nc2nc(NCCN3CCOCC3)nc(N3CC4CCC(C3)O4)n2)cc1: 105%
CCOc1ccc2nc(Sc3nc(NCCN4CCOCC4)nc(Nc4ccc(I)cc4)n3)sc2c1: 97%
Ic1ccc(Nc2nc(N3CCOCC3)nc(N3CCOCC3)n2)cc1: 114%
Cc1ccc(Nc2nc(NCCN3CCOCC3)nc(N3CCOCC3)n2)cc1: 102%
Fc1ccc(Nc2nc(NCCN3CCOCC3)nc(N3CCOCC3)n2)cc1: 98%
CCOc1ccc2nc(Sc3nc(Nc4ccc(I)cc4)nc(N4CCOCC4)n3)sc2c1: 102% and 101% and 106% and 100%
Ic1ccc(Nc2nc(NCCN3CCOCC3)nc(NC3CCCCC3)n2)cc1: 97%
Ic1ccc(Nc2nc(NCCN3CCOCC3)nc(N3CCCCC3)n2)cc1: 99%
Ic1cccc(Nc2nc(NCCN3CCOCC3)nc(N3CCOCC3)n2)c1: 99%

Study 2 — quantity: tumour volume
Structure (SMILES): Cc1ncsc1-c1ccc(C(CO)NC(=O)C2CC(O)CN2C(=O)C(C(C)C)n2cc(-c3ccc(COc4c(-c5c(C)c(F)cc6[nH]ncc56)c(C5CC5)cc5c(N6CC7CC6CN7)nc(OC6CCOCC6)nc45)cc3)nn2)cc1 (stereo not drawn)
mouse, lung LXFA sample B PDX; 30 mg/kg twice weekly, day 18: 52.3 mm3 and 225 mm3 and 59.7 mm3 and 42.7 mm3 and 18.1 mm3 and 137 mm3 and 107 mm3 and 49 mm3
GP2d xenograft, mouse; 30 mg/kg once weekly, day 4: 228 mm3 and 143 mm3 and 178 mm3 and 179 mm3
PK-1 xenograft, mouse; 30 mg/kg once weekly, day 7: 183 mm3 and 161 mm3 and 190 mm3 and 155 mm3 and 200 mm3
GP5d xenograft, mouse; 30 mg/kg once weekly, day 11: 237 mm3 and 161 mm3 and 208 mm3 and 150 mm3 and 168 mm3
mouse, lung LXFA sample B PDX; 30 mg/kg twice weekly, day 4: 156 mm3 and 205 mm3 and 76.1 mm3 and 75.4 mm3 and 224 mm3 and 91.4 mm3 and 59.7 mm3 and 159 mm3
mouse, lung LXFA sample B PDX; 10 mg/kg twice weekly, day 0: 85.6 mm3 and 363 mm3 and 56.5 mm3 and 50.4 mm3 and 93 mm3 and 212 mm3 and 163 mm3 and 103 mm3
GP2d xenograft, mouse; 30 mg/kg once weekly, day 14: 195 mm3 and 246 mm3 and 227 mm3 and 180 mm3 and 215 mm3
mouse, PK-59 xenograft; subcutaneous, 30 mg/kg once daily, day 18: 45 mm3 and 44.5 mm3 and 43.7 mm3 and 58.2 mm3 and 42.1 mm3

Study 3 — quantity: inhibition
Compound: O=C(O)C1(O)Oc2cc(Br)ccc2N(Cc2ccccc2)C1=O (stereo not drawn)
Arabidopsis thaliana; hypocotyl length; Col-0; 25.0 µg/mL, 7 days, seed germination, dark: 18.2%
Glycine max; fresh weight; soil surface spray, 150 g ai/ha, 21 days, pre-emergence crop safety: 0.2% and 0.4% and 0.3%
Arabidopsis thaliana; root length; Col-0, seedlings; 50 µg/mL; relative to: water control: 59.6%
Avena fatua; fresh weight; 150 g ai/ha, pre-emergence treatment: 100%
Arabidopsis thaliana; root length; Col-0, seedlings; 25 µg/mL; relative to: water control: 41.7%
Arabidopsis thaliana; root length; Col-0, seedlings; 50 µg/mL: 59.6%
Arabidopsis thaliana; root length; Col-0, seedlings; 25 µg/mL: 41.7%
Arabidopsis thaliana; root length; Col-0, seedlings; 6.25 µg/mL; relative to: water control: 19.8%
Arabidopsis thaliana; hypocotyl length; Col-0; 12.5 µg/mL, 7 days, seed germination, dark: 7.7%
Arabidopsis thaliana; hypocotyl length; Col-0, seedlings; 12.5 µg/mL: 7.74%
Arabidopsis thaliana; hypocotyl length; Col-0, seedlings; 100 µg/mL: 60.6%
Arabidopsis thaliana; hypocotyl length; Col-0; 100 µg/mL, 7 days, seed germination, dark: 60.6%
Amaranthus retroflexus; fresh weight; 150 g ai/ha, post-emergence treatment: 51.9% and 53.9% and 56.4%

Study 4 — method: FLIPR membrane potential; cells: CHO-BC; tested at: concentration not given; setting: unit not given; relative to: fraction of control; quantity: remaining activity
Target: Sodium-dependent neutral amino acid transporter B(0)AT1 (SLC6A19, Homo sapiens, UniProt Q695T7)
UniProt Q695T7, sequence (whole entry, looked up): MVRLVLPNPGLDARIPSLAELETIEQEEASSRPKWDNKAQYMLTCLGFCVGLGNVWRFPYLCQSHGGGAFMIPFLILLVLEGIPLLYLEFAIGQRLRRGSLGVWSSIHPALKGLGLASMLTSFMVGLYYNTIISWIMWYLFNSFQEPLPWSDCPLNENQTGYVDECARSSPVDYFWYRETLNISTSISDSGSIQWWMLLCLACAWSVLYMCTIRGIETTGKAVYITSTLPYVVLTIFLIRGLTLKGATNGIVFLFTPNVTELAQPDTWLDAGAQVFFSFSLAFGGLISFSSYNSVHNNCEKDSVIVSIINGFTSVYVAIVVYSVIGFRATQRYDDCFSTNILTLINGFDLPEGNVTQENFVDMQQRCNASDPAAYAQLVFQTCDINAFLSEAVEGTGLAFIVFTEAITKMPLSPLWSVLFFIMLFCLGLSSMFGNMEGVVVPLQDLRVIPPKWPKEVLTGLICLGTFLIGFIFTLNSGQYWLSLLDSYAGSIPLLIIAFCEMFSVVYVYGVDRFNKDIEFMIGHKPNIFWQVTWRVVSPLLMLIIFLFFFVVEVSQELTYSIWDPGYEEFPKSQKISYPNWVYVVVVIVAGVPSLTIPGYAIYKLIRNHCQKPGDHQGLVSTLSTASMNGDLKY
CC(C)NC(=O)CSc1ccc([N+](=O)[O-])cc1: 0.505
Cc1cc(NCC(=O)NC(C)C)cc(C)c1Cl: 0.102
Cc1cc(OCC(=O)NC(C)C)cc(C)c1I: 0.169
CC(C)NC(=O)COc1ccc(Br)cc1: 0.333
Cc1cc(OCC(=O)NC(C)C)ccc1Br: 0.0929
Cc1cc(NCC(=O)NC(C)C)cc(C)c1I: 0.0941
CCCNC(=O)COc1cc(C)c(Cl)c(C)c1: 0.225
CC(C)NC(=O)COC(c1ccccc1)c1ccccc1: 0.949
Cc1cc(OCC(=O)NC(C)C)cc(C)c1Br: 0.233
CC(C)NC(=O)COc1ccc(I)cc1: 0.213

Study 5 — effect on: thermal unfolding; method: differential scanning fluorimetry; tested at: 5.5 µM; reading: higher = more unfolded; quantity: SYPRO Orange fluorescence
Structure (SMILES): C[C@@H]1CN(c2ccc(-c3cc(C(=O)NCCOCCOCCOCCOCCOCCOCCNC(=O)/C=C/c4[nH]cc(C(=O)N[C@@H](CC(N)=O)c5ccc(F)c(Cl)c5)c4-c4ccc(Cl)cc4F)ccc3F)cc2NC(=O)c2ccc(F)cc2C(F)(F)F)C[C@H](C)N1C
WDR5: WD repeat-containing protein 5 (WDR5, Homo sapiens, UniProt P61964)
DCAF1: DDB1- and CUL4-associated factor 1 (DCAF1, Homo sapiens, UniProt Q9Y4B6)
UniProt Q9Y4B6, sequence (whole entry, looked up): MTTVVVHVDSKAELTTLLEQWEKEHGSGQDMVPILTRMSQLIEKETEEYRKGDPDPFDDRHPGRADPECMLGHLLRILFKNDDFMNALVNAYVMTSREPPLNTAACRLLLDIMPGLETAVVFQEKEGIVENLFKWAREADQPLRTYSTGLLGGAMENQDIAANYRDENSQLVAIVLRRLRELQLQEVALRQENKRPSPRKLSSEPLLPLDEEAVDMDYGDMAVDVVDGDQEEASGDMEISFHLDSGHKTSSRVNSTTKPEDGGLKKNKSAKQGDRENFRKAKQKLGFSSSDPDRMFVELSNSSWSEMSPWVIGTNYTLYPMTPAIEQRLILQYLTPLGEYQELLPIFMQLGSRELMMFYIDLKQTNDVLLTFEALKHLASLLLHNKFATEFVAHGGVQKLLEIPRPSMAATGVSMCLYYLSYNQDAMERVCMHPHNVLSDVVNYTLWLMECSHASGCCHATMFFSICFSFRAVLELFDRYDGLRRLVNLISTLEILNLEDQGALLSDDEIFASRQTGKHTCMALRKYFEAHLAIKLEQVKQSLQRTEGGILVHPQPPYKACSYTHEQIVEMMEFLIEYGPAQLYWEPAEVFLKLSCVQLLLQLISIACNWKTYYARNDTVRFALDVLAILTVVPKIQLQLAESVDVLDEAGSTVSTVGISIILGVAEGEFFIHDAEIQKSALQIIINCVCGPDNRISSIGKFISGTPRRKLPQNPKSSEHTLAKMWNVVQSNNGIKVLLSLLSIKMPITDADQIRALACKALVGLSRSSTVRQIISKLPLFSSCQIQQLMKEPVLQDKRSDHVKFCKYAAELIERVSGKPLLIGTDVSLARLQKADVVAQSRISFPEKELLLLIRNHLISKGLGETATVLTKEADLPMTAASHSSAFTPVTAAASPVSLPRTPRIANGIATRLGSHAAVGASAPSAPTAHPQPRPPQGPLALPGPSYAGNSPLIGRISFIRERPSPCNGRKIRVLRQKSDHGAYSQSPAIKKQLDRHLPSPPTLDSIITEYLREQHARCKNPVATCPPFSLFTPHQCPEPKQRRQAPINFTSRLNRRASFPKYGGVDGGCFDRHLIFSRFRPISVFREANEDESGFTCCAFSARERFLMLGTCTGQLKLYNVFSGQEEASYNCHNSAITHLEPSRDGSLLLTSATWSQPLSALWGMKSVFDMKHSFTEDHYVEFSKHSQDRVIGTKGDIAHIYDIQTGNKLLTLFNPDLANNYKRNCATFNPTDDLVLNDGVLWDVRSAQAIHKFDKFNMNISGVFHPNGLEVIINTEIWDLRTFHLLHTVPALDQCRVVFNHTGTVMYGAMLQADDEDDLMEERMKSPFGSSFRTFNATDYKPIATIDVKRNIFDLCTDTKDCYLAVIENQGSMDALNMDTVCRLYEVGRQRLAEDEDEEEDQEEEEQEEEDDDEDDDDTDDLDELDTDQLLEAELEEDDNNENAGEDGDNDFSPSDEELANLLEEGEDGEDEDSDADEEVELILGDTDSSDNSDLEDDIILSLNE
WDR5; 62.41 °C: 15300 a.u.
WDR5; 40.8 °C: 14200 a.u.
DCAF1; 61.21 °C: 51000 a.u.
DCAF1; 37.4 °C: 10900 a.u.
DCAF1; 85.61 °C: 35300 a.u.
WDR5; 88.41 °C: 57200 a.u.
DCAF1; 81.81 °C: 38700 a.u.
DCAF1; 49.4 °C: 17600 a.u.
DCAF1; 81.41 °C: 39000 a.u.
WDR5; 81.21 °C: 65700 a.u.
WDR5; 43.8 °C: 14500 a.u.

Study 6 — Compound: O=c1[nH]c(=S)n(C[C@H]2CCCO2)c2nc[nH]c12; quantity: inhibition
MPO: Myeloperoxidase (MPO, Homo sapiens, UniProt P05164)
UniProt P05164, sequence (whole entry, looked up): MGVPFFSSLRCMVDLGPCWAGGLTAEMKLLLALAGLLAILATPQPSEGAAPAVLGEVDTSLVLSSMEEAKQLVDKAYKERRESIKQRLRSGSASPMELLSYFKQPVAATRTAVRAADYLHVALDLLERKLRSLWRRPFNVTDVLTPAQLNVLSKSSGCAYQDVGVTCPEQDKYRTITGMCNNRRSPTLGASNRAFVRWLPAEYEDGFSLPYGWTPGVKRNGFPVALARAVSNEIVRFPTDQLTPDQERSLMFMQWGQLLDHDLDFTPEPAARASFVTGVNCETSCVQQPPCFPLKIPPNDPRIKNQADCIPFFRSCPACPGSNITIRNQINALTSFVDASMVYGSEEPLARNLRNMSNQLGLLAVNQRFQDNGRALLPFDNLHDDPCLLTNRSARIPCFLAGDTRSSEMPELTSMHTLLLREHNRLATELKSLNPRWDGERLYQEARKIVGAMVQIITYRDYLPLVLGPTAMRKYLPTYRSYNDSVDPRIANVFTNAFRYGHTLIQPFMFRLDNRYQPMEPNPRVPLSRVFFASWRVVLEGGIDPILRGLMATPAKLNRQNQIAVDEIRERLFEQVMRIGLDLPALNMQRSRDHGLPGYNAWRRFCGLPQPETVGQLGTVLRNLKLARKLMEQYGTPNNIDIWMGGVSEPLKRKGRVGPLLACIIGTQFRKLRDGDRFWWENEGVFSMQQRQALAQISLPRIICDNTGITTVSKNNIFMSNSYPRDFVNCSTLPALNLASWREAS
AOC3: Amine oxidase [copper-containing] 3 (AOC3, Homo sapiens, UniProt Q16853)
UniProt Q16853, sequence (whole entry, looked up): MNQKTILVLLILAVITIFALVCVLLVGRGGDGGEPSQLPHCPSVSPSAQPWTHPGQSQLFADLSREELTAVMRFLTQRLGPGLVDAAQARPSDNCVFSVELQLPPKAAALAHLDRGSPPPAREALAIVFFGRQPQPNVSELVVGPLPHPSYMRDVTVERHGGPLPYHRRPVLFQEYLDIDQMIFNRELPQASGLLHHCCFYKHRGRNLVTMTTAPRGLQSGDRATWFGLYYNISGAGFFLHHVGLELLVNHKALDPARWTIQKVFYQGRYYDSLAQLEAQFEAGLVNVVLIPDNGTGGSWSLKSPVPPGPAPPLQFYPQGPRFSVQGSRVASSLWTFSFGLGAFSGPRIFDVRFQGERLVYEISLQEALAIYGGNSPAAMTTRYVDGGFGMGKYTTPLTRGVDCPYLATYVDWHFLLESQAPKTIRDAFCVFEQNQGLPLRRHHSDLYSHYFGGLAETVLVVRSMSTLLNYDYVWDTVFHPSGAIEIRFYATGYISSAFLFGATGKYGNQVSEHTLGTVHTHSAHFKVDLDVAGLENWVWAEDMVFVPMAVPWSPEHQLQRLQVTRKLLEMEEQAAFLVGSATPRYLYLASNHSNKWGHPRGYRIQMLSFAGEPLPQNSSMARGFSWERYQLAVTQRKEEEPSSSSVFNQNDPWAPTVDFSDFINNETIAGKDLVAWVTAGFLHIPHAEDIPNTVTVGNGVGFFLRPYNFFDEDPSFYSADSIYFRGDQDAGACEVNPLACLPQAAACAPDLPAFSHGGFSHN
MPO; enzyme activity; 0.0015 µM: -15.4% and -4.31% and -5.76% and -8.76% and -26.8% and -11.8%
MPO; Amplex Red; 3.333 µM: 100%
MPO; Amplex Red; 10 µM: 101%
AOC3; enzyme activity, inhibitor, fluorescence; 0.3333 µM: -22.6%
AOC3; enzyme activity, inhibitor, fluorescence; 1 µM: -44.2%
MPO; enzyme activity; 0.0023 µM: -11.7% and 17% and 1.15% and -14.8% and -13.5% and -3.88% and -5.44%

Study 7 — effect on: binding; method: HTRF; tested at: 1000 nM; quantity: inhibition
Target: Membrane-associated tyrosine- and threonine-specific cdc2-inhibitory kinase (PKMYT1, Homo sapiens, UniProt Q99640)
Construct (Q99640 1-499): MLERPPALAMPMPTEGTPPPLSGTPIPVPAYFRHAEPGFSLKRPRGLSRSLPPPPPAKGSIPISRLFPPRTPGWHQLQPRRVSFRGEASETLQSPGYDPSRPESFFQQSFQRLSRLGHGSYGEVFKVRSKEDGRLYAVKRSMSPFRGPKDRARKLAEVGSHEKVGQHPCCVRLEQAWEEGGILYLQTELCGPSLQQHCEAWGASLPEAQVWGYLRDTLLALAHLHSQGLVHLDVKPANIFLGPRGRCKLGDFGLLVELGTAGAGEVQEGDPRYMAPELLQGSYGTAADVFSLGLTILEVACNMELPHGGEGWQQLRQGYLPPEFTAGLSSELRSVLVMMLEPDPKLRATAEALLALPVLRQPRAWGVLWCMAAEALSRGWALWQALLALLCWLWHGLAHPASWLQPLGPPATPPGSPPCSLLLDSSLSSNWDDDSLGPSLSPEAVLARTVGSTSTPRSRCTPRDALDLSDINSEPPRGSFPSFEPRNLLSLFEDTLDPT
Cc1ccc(O)c(C)c1-c1cnc2[nH]c(-c3cnc(N4CCC(CCN5CCN(c6ccc(N7CCC(=O)NC7=O)cc6F)CC5)CC4)nc3)cc2c1C#N: 99.4% and 99.1%
Cc1ccc(O)c(C)c1-c1cnc2[nH]c(-c3cnc(N4CCC(CCN5CCN(c6cc7c(cc6F)c(N6CCC(=O)NC6=O)nn7C)CC5)CC4)nc3)cc2c1C#N: 100%
Cc1ccc(O)c(C)c1-c1cnc2[nH]c(-c3cnc(N4CCC(CN5CCN(c6ccc(NC7CCC(=O)NC7=O)c(F)c6)CC5)CC4)nc3)cc2c1C#N (racemic): 100%
Cc1ccc(O)c(C)c1-c1cnc2[nH]c(-c3cnc(N4CCC5(CC4)CC(N4CCN(c6ccc7c(c6)C(=O)N(C6CCC(=O)NC6=O)C7=O)CC4)CO5)nc3)cc2c1C#N (mixture of isomers): 100%
Cc1ccc(O)c(C)c1-c1cnc2[nH]c(-c3cnc(N4CCC(CN5CCN(c6c(F)cc(NC7CCC(=O)NC7=O)cc6F)CC5)CC4)nc3)cc2c1C#N (racemic): 98.2% and 97.7%
Cc1ncc(-c2cc3c(N)c(-c4c(C)ccc(O)c4C)cnc3[nH]2)cn1: 95.9%

Study 8 — tested at: 1 µM; quantity: remaining binding
Compound: CC[C@@]1(c2cccc(-c3c(F)cncc3OC)c2)C2=C(Nc3n[nH]cc31)[C@H](F)C(C)(C)CC2=O (single isomer, unassigned)
EPHB3 (Homo sapiens, UniProt P54753); kinase binding, KINOMEscan; relative to: DMSO control: 100%
PLK1 (Homo sapiens, UniProt P53350); kinase binding, KINOMEscan; relative to: DMSO control: 56%
OXSR1 (Homo sapiens, UniProt O95747); binding, competition with immobilised ligand: 80%
Tyrosine-protein kinase ABL1, non-phosphorylated (ABL1, Homo sapiens, UniProt P00519); binding, competition with immobilised ligand: 100%
STK39 (Homo sapiens, UniProt Q9UEW8); binding, competition with immobilised ligand: 79%
STK16 (Homo sapiens, UniProt O75716); binding, competition with immobilised ligand: 78%
BMPR1B (Homo sapiens, UniProt O00238); binding, competition with immobilised ligand: 67%
COQ8A (Homo sapiens, UniProt Q8NI60); binding, competition with immobilised ligand: 100%
DCLK1 (Homo sapiens, UniProt O15075); kinase binding, KINOMEscan; relative to: DMSO control: 59%
DDR1 (Homo sapiens, UniProt Q08345); binding, competition with immobilised ligand: 78%
Tyrosine-protein kinase ABL1, phosphorylated (ABL1, Homo sapiens, UniProt P00519, H396P); kinase binding, KINOMEscan; relative to: DMSO control: 100%
CAMK4 (Homo sapiens, UniProt Q16566); kinase binding, KINOMEscan; relative to: DMSO control: 100%

Study 9 — cell line: U-87 MG; tested at: concentration not given; relative to: DMSO; quantity: log2 fold change
Compound: CCN1/C(=C/C=C2\CCCC(/C=C/C3=[N+](CC)c4ccccc4C3(C)C)=C2NCCCCCCCCN2CCC(Nc3nc4ccccc4n3Cc3ccc(F)cc3)CC2)C(C)(C)c2ccccc21
measured: MAFG mRNA: 0.899
measured: SAPCD1 mRNA: -1.58
measured: BET1 mRNA: 1.14
measured: TRIP6 mRNA: -1.25
measured: MACO1 mRNA: 1.25
measured: ARSI mRNA: -2.84
measured: TAPBP mRNA: -0.884
measured: SH3D19 mRNA: -1.07
measured: ENPP1 mRNA: -2.14
measured: ASB7 mRNA: 0.889
measured: PRAG1 mRNA: -1.4
measured: INCENP: -1.72
measured: VCL mRNA: -1.69
measured: SHMT1 mRNA: -1.4
measured: UBE2Z mRNA: 0.941
measured: PI4K2A mRNA: 0.902

Single results of other studies
Cc1nc(C)c(C=[N+]([O-])C(C)(C)C)nc1C
striatal HVA content (HPLC-ECD; MPTP mouse model, striatum; 90 mg/kg): 1.59 ng/mg tissue and 1.25 ng/mg tissue and 0.809 ng/mg tissue and 1.57 ng/mg tissue and 0.678 ng/mg tissue and 0.668 ng/mg tissue and 0.664 ng/mg tissue
